Assay results of several laboratories.
A part holds a random share of what one study measured.
UniProt Q13188, sequence (whole entry, looked up): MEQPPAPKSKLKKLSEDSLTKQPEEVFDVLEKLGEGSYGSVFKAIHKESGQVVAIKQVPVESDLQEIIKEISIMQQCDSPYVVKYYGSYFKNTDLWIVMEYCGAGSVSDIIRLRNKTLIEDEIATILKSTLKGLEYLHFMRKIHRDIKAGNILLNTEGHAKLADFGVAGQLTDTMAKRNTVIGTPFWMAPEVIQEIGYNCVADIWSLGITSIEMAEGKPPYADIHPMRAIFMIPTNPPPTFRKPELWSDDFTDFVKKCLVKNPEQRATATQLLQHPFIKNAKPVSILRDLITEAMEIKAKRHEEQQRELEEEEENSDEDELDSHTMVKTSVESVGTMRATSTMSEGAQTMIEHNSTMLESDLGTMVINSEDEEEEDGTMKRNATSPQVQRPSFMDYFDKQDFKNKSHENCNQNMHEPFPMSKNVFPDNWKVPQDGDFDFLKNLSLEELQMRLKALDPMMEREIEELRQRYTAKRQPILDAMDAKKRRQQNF
UniProt Q04912, sequence (whole entry, looked up): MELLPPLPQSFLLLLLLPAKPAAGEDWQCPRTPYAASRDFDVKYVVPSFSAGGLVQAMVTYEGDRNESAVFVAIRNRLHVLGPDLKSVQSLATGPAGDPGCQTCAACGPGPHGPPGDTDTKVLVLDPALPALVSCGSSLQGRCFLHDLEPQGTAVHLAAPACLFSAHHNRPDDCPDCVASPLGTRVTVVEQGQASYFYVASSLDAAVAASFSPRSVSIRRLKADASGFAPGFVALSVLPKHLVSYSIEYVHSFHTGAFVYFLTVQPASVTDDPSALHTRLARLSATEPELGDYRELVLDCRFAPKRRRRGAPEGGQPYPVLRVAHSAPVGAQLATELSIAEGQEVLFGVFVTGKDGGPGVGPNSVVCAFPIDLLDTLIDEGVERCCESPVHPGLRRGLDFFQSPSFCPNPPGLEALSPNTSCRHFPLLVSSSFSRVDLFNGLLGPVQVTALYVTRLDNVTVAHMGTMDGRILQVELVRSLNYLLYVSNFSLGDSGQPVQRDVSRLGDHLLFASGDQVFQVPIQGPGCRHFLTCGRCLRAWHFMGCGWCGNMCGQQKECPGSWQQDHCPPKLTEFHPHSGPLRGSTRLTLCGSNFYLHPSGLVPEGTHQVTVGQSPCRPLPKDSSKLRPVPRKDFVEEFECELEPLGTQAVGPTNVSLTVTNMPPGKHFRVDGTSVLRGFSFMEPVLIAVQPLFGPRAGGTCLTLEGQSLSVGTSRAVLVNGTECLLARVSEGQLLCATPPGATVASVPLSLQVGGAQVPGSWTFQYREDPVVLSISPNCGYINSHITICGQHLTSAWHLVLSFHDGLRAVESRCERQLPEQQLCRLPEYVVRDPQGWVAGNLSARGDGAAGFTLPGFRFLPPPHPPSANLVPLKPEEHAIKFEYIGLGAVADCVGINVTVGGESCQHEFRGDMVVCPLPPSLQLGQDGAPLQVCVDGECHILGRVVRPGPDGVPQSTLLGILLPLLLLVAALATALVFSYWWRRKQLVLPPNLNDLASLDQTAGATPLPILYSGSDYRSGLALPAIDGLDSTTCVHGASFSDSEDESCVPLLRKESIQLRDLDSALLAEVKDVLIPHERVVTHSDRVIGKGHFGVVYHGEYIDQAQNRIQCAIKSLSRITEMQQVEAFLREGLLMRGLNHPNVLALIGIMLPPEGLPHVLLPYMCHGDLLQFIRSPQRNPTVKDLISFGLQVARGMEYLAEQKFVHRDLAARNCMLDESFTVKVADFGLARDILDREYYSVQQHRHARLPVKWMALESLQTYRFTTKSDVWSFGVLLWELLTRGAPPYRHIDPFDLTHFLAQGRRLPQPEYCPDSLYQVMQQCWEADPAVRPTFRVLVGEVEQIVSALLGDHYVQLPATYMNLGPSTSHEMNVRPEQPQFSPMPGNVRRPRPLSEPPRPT
UniProt P78368, sequence (whole entry, looked up): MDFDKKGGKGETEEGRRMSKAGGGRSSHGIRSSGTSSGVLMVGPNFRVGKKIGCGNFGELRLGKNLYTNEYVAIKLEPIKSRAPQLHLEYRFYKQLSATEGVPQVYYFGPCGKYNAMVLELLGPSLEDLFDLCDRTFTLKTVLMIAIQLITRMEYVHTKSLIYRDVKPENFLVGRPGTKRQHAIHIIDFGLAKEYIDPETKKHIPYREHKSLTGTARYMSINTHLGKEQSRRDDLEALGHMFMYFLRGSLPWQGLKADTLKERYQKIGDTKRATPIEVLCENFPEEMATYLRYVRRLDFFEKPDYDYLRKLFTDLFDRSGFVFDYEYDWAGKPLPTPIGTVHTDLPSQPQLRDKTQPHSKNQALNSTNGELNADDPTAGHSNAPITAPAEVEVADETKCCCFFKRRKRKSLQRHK
UniProt Q7L7X3, sequence (whole entry, looked up): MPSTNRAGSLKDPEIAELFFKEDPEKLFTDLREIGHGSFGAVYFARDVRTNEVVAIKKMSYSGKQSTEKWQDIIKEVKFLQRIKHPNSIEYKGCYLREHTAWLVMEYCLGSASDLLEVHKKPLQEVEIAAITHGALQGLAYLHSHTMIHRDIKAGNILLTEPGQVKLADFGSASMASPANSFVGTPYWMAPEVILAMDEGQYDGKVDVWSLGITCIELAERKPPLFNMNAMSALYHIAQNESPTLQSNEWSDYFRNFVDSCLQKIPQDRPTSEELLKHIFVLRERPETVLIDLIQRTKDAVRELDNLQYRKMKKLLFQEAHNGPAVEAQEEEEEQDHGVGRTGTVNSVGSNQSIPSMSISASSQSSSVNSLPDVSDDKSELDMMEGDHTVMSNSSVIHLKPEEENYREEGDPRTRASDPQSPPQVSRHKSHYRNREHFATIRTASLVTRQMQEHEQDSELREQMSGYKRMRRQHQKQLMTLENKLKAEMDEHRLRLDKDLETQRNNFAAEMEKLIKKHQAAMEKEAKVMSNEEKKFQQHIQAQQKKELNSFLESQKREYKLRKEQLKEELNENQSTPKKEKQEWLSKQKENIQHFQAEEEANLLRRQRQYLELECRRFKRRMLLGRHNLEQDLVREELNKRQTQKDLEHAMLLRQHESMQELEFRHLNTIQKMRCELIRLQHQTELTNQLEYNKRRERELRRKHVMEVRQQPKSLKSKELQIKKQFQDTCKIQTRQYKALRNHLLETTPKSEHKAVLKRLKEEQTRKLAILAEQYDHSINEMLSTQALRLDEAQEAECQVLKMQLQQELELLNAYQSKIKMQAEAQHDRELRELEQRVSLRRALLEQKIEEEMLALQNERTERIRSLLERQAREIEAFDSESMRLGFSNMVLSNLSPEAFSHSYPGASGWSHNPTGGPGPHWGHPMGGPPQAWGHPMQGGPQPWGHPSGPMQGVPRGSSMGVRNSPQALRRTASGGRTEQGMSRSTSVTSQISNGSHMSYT
UniProt P10398, sequence (whole entry, looked up): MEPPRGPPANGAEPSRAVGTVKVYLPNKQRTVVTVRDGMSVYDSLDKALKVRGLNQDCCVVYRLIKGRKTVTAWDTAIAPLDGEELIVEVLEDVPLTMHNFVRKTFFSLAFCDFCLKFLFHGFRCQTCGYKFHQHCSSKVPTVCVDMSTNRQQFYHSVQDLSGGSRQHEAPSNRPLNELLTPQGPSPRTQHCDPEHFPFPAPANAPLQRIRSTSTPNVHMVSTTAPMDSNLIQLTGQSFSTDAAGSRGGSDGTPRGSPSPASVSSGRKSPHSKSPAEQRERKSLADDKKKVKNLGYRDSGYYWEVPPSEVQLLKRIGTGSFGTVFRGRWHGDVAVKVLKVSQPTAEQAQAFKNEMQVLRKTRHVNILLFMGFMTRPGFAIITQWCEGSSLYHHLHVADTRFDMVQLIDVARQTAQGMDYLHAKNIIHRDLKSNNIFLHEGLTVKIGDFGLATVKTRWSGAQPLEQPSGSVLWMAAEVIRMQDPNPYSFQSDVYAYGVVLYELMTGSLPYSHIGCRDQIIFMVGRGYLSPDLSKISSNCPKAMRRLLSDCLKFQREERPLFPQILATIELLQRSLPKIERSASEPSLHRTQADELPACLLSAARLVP
UniProt Q13976, sequence (whole entry, looked up): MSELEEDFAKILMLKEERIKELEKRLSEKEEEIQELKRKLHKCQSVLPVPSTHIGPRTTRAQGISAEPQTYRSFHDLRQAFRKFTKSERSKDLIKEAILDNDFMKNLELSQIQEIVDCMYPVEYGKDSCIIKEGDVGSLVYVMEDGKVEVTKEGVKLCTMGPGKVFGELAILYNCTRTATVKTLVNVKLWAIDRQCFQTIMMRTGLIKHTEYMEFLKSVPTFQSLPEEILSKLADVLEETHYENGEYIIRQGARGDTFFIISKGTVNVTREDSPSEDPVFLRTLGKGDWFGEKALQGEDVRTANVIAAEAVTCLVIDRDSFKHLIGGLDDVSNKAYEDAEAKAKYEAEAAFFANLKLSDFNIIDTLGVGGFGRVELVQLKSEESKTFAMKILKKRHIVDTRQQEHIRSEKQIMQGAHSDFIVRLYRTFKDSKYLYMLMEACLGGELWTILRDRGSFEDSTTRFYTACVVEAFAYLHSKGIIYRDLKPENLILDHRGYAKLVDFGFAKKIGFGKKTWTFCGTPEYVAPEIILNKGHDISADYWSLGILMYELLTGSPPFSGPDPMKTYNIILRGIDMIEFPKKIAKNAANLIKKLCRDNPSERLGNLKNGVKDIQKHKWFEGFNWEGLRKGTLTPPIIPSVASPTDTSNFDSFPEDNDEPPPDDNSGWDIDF
UniProt Q9UQM7, sequence (whole entry, looked up): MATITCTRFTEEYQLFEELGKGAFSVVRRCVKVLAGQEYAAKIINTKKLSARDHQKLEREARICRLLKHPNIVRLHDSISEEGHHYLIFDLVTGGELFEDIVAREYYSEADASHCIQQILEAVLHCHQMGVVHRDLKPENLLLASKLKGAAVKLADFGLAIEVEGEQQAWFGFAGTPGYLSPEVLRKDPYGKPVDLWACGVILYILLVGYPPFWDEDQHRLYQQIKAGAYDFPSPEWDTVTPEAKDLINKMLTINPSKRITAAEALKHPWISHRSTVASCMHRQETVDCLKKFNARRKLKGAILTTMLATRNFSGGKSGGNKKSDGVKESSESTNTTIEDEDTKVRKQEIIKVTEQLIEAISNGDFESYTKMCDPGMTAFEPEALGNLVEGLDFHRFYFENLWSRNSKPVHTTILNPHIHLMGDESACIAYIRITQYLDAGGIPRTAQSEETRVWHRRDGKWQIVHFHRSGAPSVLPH

Sample 1
Sample: hydrocarbon/water
pH: 7.4
SMILES	logD
CC(C)C[C@@H]1NC(=O)[C@H](C)N(C)C(=O)[C@H](CC2CCCCC2)NC(=O)[C@H](CC(C)C)N(C)C(=O)[C@H]2CCCN2C(=O)[C@H](CC2CCCCC2)NC(=O)[C@H](C)N(C)C(=O)[C@H](C2CCCCC2)NC(=O)Cn2cc(nn2)CN(C)C1=O	2.96
CC(C)C[C@@H]1NC(=O)CN(Cc2ccc3c(c2)OCO3)C(=O)[C@H](C)NC(=O)[C@H](CC(C)C)N(C)C(=O)[C@H]2CCCN2C(=O)[C@H](C)NC(=O)CN(CC2CCCCC2)C(=O)[C@H](C)NC(=O)[C@H](CC(C)C)N(C)C(=O)[C@H]2CCCN2C1=O	2.24
CCCN1CC(=O)N[C@@H](CC2CCCCC2)C(=O)N2CCC[C@@H]2C(=O)N(C)[C@@H](C)C(=O)N[C@@H](CC2CCCCC2)C(=O)N(C)[C@@H](C)C(=O)N[C@@H](CC(C)C)C(=O)N(C)Cc2cn(nn2)CC(=O)N[C@@H](C2CCCCC2)C1=O	2.35
CC[C@@H]1NC(=O)[C@H](CC)N(C)C(=O)[C@H]2CCCN2C(=O)[C@H](CC(C)C)NC(=O)[C@H](C)N(C)C(=O)[C@H](CC(C)C)NC(=O)Cn2cc(nn2)CN(C)C(=O)[C@H](CC(C)C)NC(=O)[C@H](C)N(C)C1=O	-1.04
CCN1CC(=O)N[C@@H](CC(C)C)C(=O)N2CCC[C@@H]2C(=O)N(C)[C@@H](CC(C)C)C(=O)N[C@@H](C)C(=O)N(CC2CCCCC2)CC(=O)N[C@@H](Cc2ccccc2)C(=O)N2CCC[C@@H]2C(=O)N(C)[C@@H](CC(C)C)C(=O)N[C@@H](C)C1=O	2.33
CCC[C@@H]1NC(=O)CN(CC)C(=O)[C@H](CC(C)C)NC(=O)Cn2cc(nn2)CN(C)C(=O)[C@H](CC(C)C)NC(=O)[C@H](C)N(C)C(=O)[C@H](CC2CCCCC2)NC(=O)[C@H](C)N(C)C(=O)[C@H]2CCCN2C1=O	-0.418
CC(C)C[C@@H]1NC(=O)[C@H](Cc2ccccc2)N(C)C(=O)[C@H]2CCCN2C(=O)[C@H](CC(C)C)NC(=O)[C@H](C)N(C)C(=O)[C@@H](C)N(C)C1=O	1.61
CCCCCN1CC(=O)NC(CC(C)C)C(=O)N(C)C(C)C(=O)NC(C)C(=O)N2CCCC2C(=O)N(CC)CC(=O)NC(CC(C)C)C(=O)N(C)C(C)C(=O)NC(CC(C)C)C(=O)N2CCCC2C1=O (stereo not drawn)	2.16
CCN1CC(=O)N[C@@H](CC2CCCCC2)C(=O)N(C)[C@@H](C)C(=O)N[C@@H](CC(C)C)C(=O)N(C)Cc2cn(nn2)CC(=O)N[C@@H](CC(C)C)C(=O)N(C)[C@@H](C)C(=O)N[C@@H](CC(C)C)C(=O)N2CCC[C@@H]2C1=O	0.708
CCC[C@@H]1NC(=O)[C@H](C)N(C)C(=O)[C@H](CC(C)C)NC(=O)Cn2cc(nn2)CN(C)C(=O)[C@H](CC(C)C)NC(=O)[C@H](C)N(C)C(=O)[C@H](CC(C)C)NC(=O)[C@H](CC)N(C)C(=O)[C@H]2CCCN2C1=O	-0.327
CCC[C@@H]1NC(=O)[C@H](C)N(C)C(=O)[C@H](CC(C)C)NC(=O)Cn2cc(nn2)CN(C)C(=O)[C@H](CC(C)C)NC(=O)[C@H](C)N(C)C(=O)[C@H](CC(C)C)NC(=O)[C@H](CCC)N(C)C(=O)[C@H]2CCCN2C1=O	0.316
CC[C@@H]1NC(=O)CN(CC)C(=O)[C@H]2CCCN2C(=O)[C@H](CC(C)C)NC(=O)[C@H](C)N(C)C(=O)[C@H](CC(C)C)NC(=O)Cn2cc(nn2)CN(C)C(=O)[C@H](CC(C)C)NC(=O)[C@H](C)N(C)C1=O	-1.65
CC[C@H]1NC(=O)[C@H](CC(C)C)NC(=O)[C@H](Cc2ccccc2)NC(=O)[C@H]2CCCN2C(=O)[C@H](CC(C)C)NC(=O)[C@H](C)NC1=O	-0.607
CCC[C@@H]1C(=O)N(C)[C@@H](CC2CCCCC2)C(=O)N[C@@H](CC2CCCCC2)C(=O)N2CCC[C@@H]2C(=O)N(C)[C@@H](Cc2ccc(O)cc2)C(=O)N[C@@H](CC(C)C)C(=O)N1C	3.39

Sample 2
Structure (SMILES): CO[C@H]1CC[C@H](CNc2ccc(S(=O)(=O)NC(=O)c3ccc(N4CCN(CC5=C(c6ccc(Cl)cc6)CC(C)(C)CC5)CC4)cc3Oc3cnc4[nH]ccc4c3)cc2[N+](=O)[O-])CC1
Effect on: cell-free assay
Technique: competition with immobilised ligand
Tested at: 1 µM
target	remaining binding
Activated CDC42 kinase 1 (TNK2, Homo sapiens, UniProt Q07912)	96%
cGMP-dependent protein kinase 1 (PRKG1, Homo sapiens, UniProt Q13976)	92%
Mast/stem cell growth factor receptor Kit (KIT, Homo sapiens, UniProt P10721, V559D/V654A)	93%
Mitogen-activated protein kinase kinase kinase 11 (MAP3K11, Homo sapiens, UniProt Q16584)	74%
Non-receptor tyrosine-protein kinase TNK1 (TNK1, Homo sapiens, UniProt Q13470)	81%
Epidermal growth factor receptor (EGFR, Homo sapiens, UniProt P00533, del752-759)	61%
Serine/threonine-protein kinase 3 (STK3, Homo sapiens, UniProt Q13188)	85%
Calcium/calmodulin-dependent protein kinase type II subunit alpha (CAMK2A, Homo sapiens, UniProt Q9UQM7)	68%
Receptor-interacting serine/threonine-protein kinase 1 (RIPK1, Homo sapiens, UniProt Q13546)	77%
Serine/threonine-protein kinase TAO1 (TAOK1, Homo sapiens, UniProt Q7L7X3)	88%

Sample 3
Compound: N#Cc1c(NC(=O)c2cccc3ccccc23)sc2c1CCCC2
Effect on: enzyme activity
Action: inhibitor
Tested at: 0.5 µM
Reference: control
target	remaining activity
Casein kinase I isoform gamma-2 (CSNK1G2, Homo sapiens, UniProt P78368)	103%
Serine/threonine-protein kinase A-Raf (ARAF, Homo sapiens, UniProt P10398)	104%
Serine/threonine-protein kinase ULK2 (ULK2, Homo sapiens, UniProt Q8IYT8)	112%
Fibroblast growth factor receptor 1 (FGFR1, Homo sapiens, UniProt P11362)	105%
Macrophage-stimulating protein receptor (MST1R, Homo sapiens, UniProt Q04912)	92.5%
Tyrosine-protein kinase JAK3 (JAK3, Homo sapiens, UniProt P52333)	101%
Serine/threonine-protein kinase Nek6 (NEK6, Homo sapiens, UniProt Q9HC98)	101%
Tyrosine-protein kinase FRK (FRK, Homo sapiens, UniProt P42685)	104%
Mitogen-activated protein kinase kinase kinase 14 (MAP3K14, Homo sapiens, UniProt Q99558)	111%
Serine/threonine-protein kinase Nek1 (NEK1, Homo sapiens, UniProt Q96PY6)	93.4%
Angiopoietin-1 receptor (TEK, Homo sapiens, UniProt Q02763)	104%
Glycogen synthase kinase-3 beta (GSK3B, Homo sapiens, UniProt P49841)	97.5%
Mitogen-activated protein kinase 3 (MAPK3, Homo sapiens, UniProt P27361)	97.1%

Sample 4
Cell line: A-375
Tested at: 100 µM
Time: 18 h
Compound	viability [%]
CN(C)CCN(Cc1ccccc1)c1ccccn1	63
COc1cc(NS(=O)(=O)c2ccc(N)cc2)nc(OC)n1	93.6
C=C(c1ccc(C(=O)O)cc1)c1cc2c(cc1C)C(C)(C)CCC2(C)C	10.7
CCC[C@H](N[C@@H](C)C(=O)N1[C@H](C(=O)O)C[C@@H]2CCCC[C@@H]21)C(=O)O	110
COc1ccccc1OCC(O)COC(N)=O (stereo not drawn)	109
COc1cc2c(cc1OC)[C@H]1CC(=O)[C@H](CC(C)C)CN1CC2 (racemic)	77.5
CS(=O)(=O)n1cc2c(n1)CN([C@H]1CO[C@H](c3cc(F)ccc3F)[C@@H](N)C1)C2	84.3
CCC(C)(C)c1ccc(CC(C)CN2C[C@@H](C)O[C@@H](C)C2)cc1 (stereo partly drawn)	11.4

Repeated from above (sample 1):
SMILES	logD
CC(C)C[C@@H]1NC(=O)CN(Cc2ccc3c(c2)OCO3)C(=O)[C@H](C)NC(=O)[C@H](CC(C)C)N(C)C(=O)[C@H]2CCCN2C(=O)[C@H](C)NC(=O)CN(CC2CCCCC2)C(=O)[C@H](C)NC(=O)[C@H](CC(C)C)N(C)C(=O)[C@H]2CCCN2C1=O	2.24
CCN1CC(=O)N[C@@H](CC2CCCCC2)C(=O)N(C)[C@@H](C)C(=O)N[C@@H](CC(C)C)C(=O)N(C)Cc2cn(nn2)CC(=O)N[C@@H](CC(C)C)C(=O)N(C)[C@@H](C)C(=O)N[C@@H](CC(C)C)C(=O)N2CCC[C@@H]2C1=O	0.708
CCN1CC(=O)N[C@@H](CC(C)C)C(=O)N2CCC[C@@H]2C(=O)N(C)[C@@H](CC(C)C)C(=O)N[C@@H](C)C(=O)N(CC2CCCCC2)CC(=O)N[C@@H](Cc2ccccc2)C(=O)N2CCC[C@@H]2C(=O)N(C)[C@@H](CC(C)C)C(=O)N[C@@H](C)C1=O	2.33
